Experimental data gathered from unrelated publications.
Lines come from different studies, so protocols differ. Numbers after ± are the reported error.
Chain of UniProt P22413 (whole entry, looked up): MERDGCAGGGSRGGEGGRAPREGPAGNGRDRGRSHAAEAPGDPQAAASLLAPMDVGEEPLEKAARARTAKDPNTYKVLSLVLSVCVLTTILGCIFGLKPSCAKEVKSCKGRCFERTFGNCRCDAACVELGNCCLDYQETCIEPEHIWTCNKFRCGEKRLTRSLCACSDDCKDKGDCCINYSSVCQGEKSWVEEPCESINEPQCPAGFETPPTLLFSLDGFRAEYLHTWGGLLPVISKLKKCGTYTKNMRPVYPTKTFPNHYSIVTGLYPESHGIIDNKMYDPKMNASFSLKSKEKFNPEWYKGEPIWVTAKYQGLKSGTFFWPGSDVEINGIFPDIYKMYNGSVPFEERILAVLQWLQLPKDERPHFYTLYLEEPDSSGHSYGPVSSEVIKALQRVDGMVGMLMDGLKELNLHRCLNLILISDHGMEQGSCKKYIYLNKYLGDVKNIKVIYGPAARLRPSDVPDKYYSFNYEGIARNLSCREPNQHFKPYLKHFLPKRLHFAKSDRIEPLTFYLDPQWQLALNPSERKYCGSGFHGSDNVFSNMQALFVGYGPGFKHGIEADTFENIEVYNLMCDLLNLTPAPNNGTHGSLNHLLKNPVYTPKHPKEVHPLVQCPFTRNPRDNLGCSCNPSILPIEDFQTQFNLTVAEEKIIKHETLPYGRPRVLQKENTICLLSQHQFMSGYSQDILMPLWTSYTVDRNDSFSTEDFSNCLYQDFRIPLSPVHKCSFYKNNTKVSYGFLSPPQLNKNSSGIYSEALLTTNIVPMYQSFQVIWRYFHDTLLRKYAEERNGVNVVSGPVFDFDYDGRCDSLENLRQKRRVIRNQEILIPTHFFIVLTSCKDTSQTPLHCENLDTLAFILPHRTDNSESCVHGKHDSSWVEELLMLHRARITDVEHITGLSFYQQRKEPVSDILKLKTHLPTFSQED

| SMILES | tested on | test | system | setting | scale | quantity | value |
| --- | --- | --- | --- | --- | --- | --- | --- |
| Cc1cc(Nc2ccc(S(F)(F)(F)(F)F)cc2)n2nc(C(C)(F)F)nc2n1 | Plasmodium falciparum |  | P. falciparum malaria patients | oral, 400 mg |  | patients with gastrointestinal disorders | 23.1% |
| c1csc(CNc2cc[nH]n2)c1 | human peripheral blood lymphocytes (female) |  |  | 1850 µg/mL, 4 h, repeat, together with: without S9 |  | cells with structural aberrations | 1.5% |
| CNCc1ccc(-c2[nH]c3cc(F)cc4c3c2CCNC4=O)cc1 |  |  | human patients | oral, 40 mg once daily, grade 500 or higher |  | incidence of neutropenia | 11.5% |
| CN1CCN(c2cnc3c(cc(C(=O)NCc4ccc(Cl)cc4)c(=O)n3CC(=O)N3CC(C)(F)C3)n2)C1=O | herpes simplex virus 2 | cytopathic effect | G |  | baseline: CC50 over EC50 | selectivity index | > 144 |
| CCc1nc(N)nc(N)c1-c1ccc(Cl)cc1 | uninfected human foreskin fibroblasts | MTT |  | 10 µM, 48 h |  | viability | 100% |
| CCc1cc(C(=O)NC)c2nccc(N3CCc4c(cc(Cn5ccnc5)cc4-c4cn(C)nc4C(F)(F)F)C3=O)c2c1 |  |  | Sprague Dawley rats | oral, 100 mg/kg twice daily, 7 days |  | mean corpuscular haemoglobin | 19.9 ± 0.26 pg |
| CC(C)Oc1c(NC(=O)c2ccc(NC(=O)[C@H](CC(N)=O)NC(=O)c3ccc(NC(=O)c4ccc(C#N)cc4)cc3)cc2)ccc(C(=O)Nc2ccc(C(=O)O)cc2)c1O | Escherichia coli ATCC 25922 |  | neutropenic male CD-1 mice, lung | iv then sc, 67.5 mg/kg/day, 24 h after infection, thigh infection model |  | concentration | 18.6 ± 7.1 ng/mL |
| CC[C@]1(C)C[C@@H](OC(=O)CSc2nnc(N)[nH]2)[C@]2(C)[C@H](C)CC[C@]3(CCC(=O)[C@H]32)[C@@H](C)[C@@H]1O | pooled human hepatocyte co-culture | mRNA induction, refers to: CYP2C8 mRNA |  | 48 h |  | EC50 | 2.92 µM |
| Nc1nc2c(ncn2[C@@H]2O[C@@H]3COP(=O)(O)O[C@H]4[C@@H](O)[C@H](n5cnc6c(N)ncnc65)O[C@@H]4COP(=O)(O)O[C@H]2[C@@H]3O)c(=O)[nH]1 | ENPP1 (Homo sapiens, UniProt P22413) | substrate |  | 8 h |  | remaining compound | 80% |

For quick reference, copied from above:
| SMILES | tested on | test | system | setting | scale | quantity | value |
| --- | --- | --- | --- | --- | --- | --- | --- |
| CCc1nc(N)nc(N)c1-c1ccc(Cl)cc1 | uninfected human foreskin fibroblasts | MTT |  | 10 µM, 48 h |  | viability | 100% |
